Results gathered from unrelated publications.
Every numbered part comes from another study and shows a few of its results, in no order. “And” joins repeats or separate records; there may be more than shown.

Sample 1 — technique: protein binding microarray; form: double-stranded DNA, one strand shown; sample: in vitro; tested at: not given; relative to: not given; reading: higher = stronger binding
Target: Histone acetyltransferase KAT6A, both winged helices, GST fusion (KAT6A, Homo sapiens, UniProt Q92794, residues 1-181)
Setting: 8-mer, flanks averaged, mean of 2 arrays, mostly near background
Construct (chain): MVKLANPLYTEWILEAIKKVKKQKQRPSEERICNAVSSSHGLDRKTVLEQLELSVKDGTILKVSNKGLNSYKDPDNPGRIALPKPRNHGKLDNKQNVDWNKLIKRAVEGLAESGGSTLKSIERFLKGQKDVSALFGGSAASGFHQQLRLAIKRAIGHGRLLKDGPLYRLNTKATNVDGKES
Strand	E-score
CCCCTGCC	-0.0878
GTCCTTAA	-0.0608
AAGTTACG	0.0141
ATGTTTGG	0.0183
GTCCGAAA	0.029
AGACGTAC	-0.0197
TCGTGTAA	0.00791
ATCAGAGA	-0.161
ATTTTGAA	-0.0422
AGCGCGAG	0.255

Sample 2 — technique: protein-binding microarray; form: double-stranded DNA, one strand shown; sample: in vitro; tested at: 250 nM; setting: 60-bp whole probe; with: salmon DNA 0.4 mg/ml; relative to: random background probes; reading: higher = stronger binding; all sequences stand within: GCCTAGCAC … GTCTTGATTCGCTTGACGCTGCTG
Target: Interferon regulatory factor 7, full length, phosphomimetic (IRF7, Homo sapiens, UniProt Q92985, residues 1-503, S101K/S471D/S472D/S475D/S476D/S477D/S483D/S484D/S487D)
Residues (chain): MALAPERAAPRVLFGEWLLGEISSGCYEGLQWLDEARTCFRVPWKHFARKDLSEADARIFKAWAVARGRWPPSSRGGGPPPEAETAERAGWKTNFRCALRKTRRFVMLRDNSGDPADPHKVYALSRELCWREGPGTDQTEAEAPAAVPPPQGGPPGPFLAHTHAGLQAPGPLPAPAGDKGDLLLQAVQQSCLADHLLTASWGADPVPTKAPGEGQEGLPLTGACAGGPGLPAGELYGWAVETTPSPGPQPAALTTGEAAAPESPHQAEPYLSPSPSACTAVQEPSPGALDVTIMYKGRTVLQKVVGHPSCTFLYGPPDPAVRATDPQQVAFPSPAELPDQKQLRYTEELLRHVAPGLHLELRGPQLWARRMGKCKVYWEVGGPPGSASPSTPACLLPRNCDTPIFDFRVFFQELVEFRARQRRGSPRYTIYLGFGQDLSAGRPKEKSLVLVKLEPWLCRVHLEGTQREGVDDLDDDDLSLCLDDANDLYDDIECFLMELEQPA
Strand	log fluorescence
GCCGGTATCCTACTGCTGACGTGCTAG	-0.187 z-score
TCATCCATCACTTTCCAACTGTGCTAG	0.612 z-score
GACGATCGCAGTATCGAGACGTGCTAG	-0.195 z-score
TCATTAATGCTTCTGGGACTGTGCTAG	0.243 z-score
GACGAACTGGGGATTCGAGACGTGCTA	-0.0314 z-score
GACGGACTGGGTCTCGGGAAGTGCTAG	-0.325 z-score
TGAGTCTTCCCTTTTAAGTTGTGCTAG	1.17 z-score

Sample 3 — technique: universal PBM; form: double-stranded DNA, one strand shown; sample: in vitro; tested at: 600 nM; reading: higher = stronger binding
Target: Sal-like protein 4, full length isoform A (SALL4, Homo sapiens, UniProt Q9UJQ4, residues 1-1053)
Sequence of UniProt Q9UJQ4 (whole entry, looked up): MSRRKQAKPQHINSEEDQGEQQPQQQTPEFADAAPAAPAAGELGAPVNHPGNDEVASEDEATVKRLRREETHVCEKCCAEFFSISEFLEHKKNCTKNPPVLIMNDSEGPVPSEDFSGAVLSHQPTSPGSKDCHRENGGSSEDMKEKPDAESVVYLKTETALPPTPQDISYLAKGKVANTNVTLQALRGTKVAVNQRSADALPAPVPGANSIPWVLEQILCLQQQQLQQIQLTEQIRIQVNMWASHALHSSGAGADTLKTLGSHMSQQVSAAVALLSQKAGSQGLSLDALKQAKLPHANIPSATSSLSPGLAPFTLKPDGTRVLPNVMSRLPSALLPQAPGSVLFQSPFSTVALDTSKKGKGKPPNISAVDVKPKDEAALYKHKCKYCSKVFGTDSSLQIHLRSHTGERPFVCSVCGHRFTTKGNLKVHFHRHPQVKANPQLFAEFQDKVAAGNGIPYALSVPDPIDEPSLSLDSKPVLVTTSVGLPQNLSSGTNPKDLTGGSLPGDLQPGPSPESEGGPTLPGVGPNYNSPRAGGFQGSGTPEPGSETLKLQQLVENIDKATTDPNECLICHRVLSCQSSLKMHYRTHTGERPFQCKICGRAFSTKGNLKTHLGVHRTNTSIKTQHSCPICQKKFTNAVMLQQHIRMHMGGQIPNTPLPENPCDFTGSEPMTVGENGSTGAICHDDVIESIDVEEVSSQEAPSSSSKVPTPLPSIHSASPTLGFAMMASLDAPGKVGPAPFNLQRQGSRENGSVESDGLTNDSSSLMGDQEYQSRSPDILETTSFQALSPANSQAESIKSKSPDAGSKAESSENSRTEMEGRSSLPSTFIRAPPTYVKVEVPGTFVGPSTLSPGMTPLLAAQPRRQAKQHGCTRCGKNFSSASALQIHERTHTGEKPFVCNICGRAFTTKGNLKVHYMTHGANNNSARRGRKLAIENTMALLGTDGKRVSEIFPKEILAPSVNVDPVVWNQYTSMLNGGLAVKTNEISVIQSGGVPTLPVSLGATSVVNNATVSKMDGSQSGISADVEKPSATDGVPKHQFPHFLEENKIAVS
Setting: 8-mer, flanks averaged, mean of replicates
Strand	E-score
CCTAATCG	-0.0114
TGGTCCAA	-0.168
ACTGTATG	0.18
GAGCCGGA	-0.171

Single results of other studies
Molecule	target	assay	system	setting	scale	quantity	result
PhoQ, residues 284 288 289 292 302 303 GANMMA	PhoP, residues 12 14 15 18 19 LWHSL (Escherichia coli, UniProt P23836)	Sort-seq, refers to: YFP reporter	E. coli	PhoQ-PhoP variant library, with: 10 µM Mg2+	relative to: high Mg2+ state, higher = stronger signaling	fold induction	5.51 and 10.6

Repeated from above (sample 3):
Strand	E-score
TGGTCCAA	-0.168
